Experimental data gathered from unrelated publications.
A part holds a random share of what one study measured.

Study 1
Target: Histone acetyltransferase KAT6A, winged helix 1, GST fusion (KAT6A, Homo sapiens, UniProt Q92794, residues 1-85)
Technique: protein binding microarray
Form: double-stranded DNA, one strand shown
Sample: in vitro
Concentration: not given
Notes: 8-mer, flanks averaged, mean of 2 arrays, mostly near background
Reference: not given
Direction: higher = stronger binding
Quantity: E-score
Construct (chain): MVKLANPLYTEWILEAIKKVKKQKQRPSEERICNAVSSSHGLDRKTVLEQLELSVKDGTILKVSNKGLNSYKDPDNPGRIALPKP
Strand = GGTTAGCA; result = -0.151
Strand = CCCACTTC; result = -0.141
Strand = AGGCGAGA; result = -0.145
Strand = AAAGCAAC; result = -0.00918
Strand = CTAGTTTC; result = 0.0206
Strand = CCAGCGGG; result = 0.306
Strand = AGGAATAT; result = -0.0671
Strand = AAGGTCAG; result = -0.212
Strand = CATTGTCC; result = 0.00412
Strand = CAGTCCGG; result = 0.158
Strand = ACACGACA; result = -0.274
Strand = CCATGTCA; result = -0.152
Strand = ACTAGTCT; result = -0.235
Strand = CACGACCA; result = -0.18
Strand = TCTACAAA; result = -0.0969
Strand = CAAACGAG; result = -0.0664
Strand = TATTGTAA; result = -0.0332
Strand = ATAGTATA; result = -0.0539
Strand = AAACCGAA; result = -0.0452
Strand = GTACTCAC; result = -0.111
Strand = GAATAGTA; result = -0.122
Strand = AATACCGA; result = 0.0864
Strand = CAGGCGGA; result = 0.182
Strand = ACCGCTCA; result = 0.229
Strand = ACTGGTTC; result = -0.0317

Study 2
Target: ATP-dependent RNA helicase DDX3X, helicase core (DDX3X, Homo sapiens, UniProt O00571, residues 132-607)
Sequence of UniProt O00571 (132-607, looked up): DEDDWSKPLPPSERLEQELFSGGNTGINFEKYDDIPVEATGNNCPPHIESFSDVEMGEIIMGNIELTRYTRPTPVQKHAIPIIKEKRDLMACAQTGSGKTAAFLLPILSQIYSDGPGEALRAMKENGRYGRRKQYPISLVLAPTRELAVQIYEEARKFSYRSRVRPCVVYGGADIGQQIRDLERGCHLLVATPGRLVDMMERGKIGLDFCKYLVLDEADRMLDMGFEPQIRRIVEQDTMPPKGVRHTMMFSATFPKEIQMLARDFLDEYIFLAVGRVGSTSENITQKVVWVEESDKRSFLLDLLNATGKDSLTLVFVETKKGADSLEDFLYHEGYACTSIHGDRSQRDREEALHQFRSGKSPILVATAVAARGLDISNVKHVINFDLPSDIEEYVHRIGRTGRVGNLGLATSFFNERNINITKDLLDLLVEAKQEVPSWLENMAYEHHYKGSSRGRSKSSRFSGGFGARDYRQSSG
Technique: RNA Bind-n-Seq
Form: RNA
Sample: in vitro
Concentration: 90 pmol
Notes: 4-mer, random 30-nt RNA, single round
Together with: 3 µM DMDA-PatA, 2 mM ADP, 2 mM phosphate
Reference: input library
Direction: higher = stronger binding
Quantity: 4-mer enrichment
Strand = CUCG; result = 0.831 fold
Strand = AGUC; result = 0.965 fold
Strand = UUAG; result = 1.03 fold
Strand = UUGU; result = 1.02 fold
Strand = AGAU; result = 0.929 fold
Strand = GCCG; result = 0.892 fold
Strand = GAGG; result = 1.21 fold
Strand = GUCG; result = 0.994 fold
Strand = CCUC; result = 0.994 fold
Strand = CAAC; result = 0.973 fold
Strand = CAUA; result = 0.973 fold
Strand = CGGU; result = 0.8 fold
Strand = AGGG; result = 1.24 fold
Strand = GGUU; result = 0.982 fold
Strand = CUCU; result = 0.804 fold
Strand = GGCU; result = 0.808 fold
Strand = UCAU; result = 0.909 fold

Study 3
Target: RNA binding protein fox-1 homolog 2, RRM domain, GST-SBP tag (RBFOX2, Homo sapiens, UniProt O43251-10, residues 100-194)
Technique: RNA Bind-n-Seq
Form: RNA
Sample: in vitro
Concentration: 365 nM
Notes: natural RNA segment, single round, ends assumed
Reference: no-protein control
Direction: higher = stronger binding
Quantity: RBNS enrichment (R)
Strand = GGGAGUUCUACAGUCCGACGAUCCUAGGAAGGUCUUAAGCAUGUAAUGUCCCUUUAUCAGAGGGAAGGGGACAAACUCAGGGCAGCCCUGUCCAGGUAGAAAUAUUUUUGCCCCCCUGUCUGAUGUUGAUGAGUGGAAUUCUCGGGUGCCAA; result = 2.67
Strand = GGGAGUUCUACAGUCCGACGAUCUUUUUUGUUUUUGUUUUUUCCAUUGUUCUGCACUUCCACAGUCCAGACCAAUCAAGUCACUUGACAAUAUGCCCCAAGUGACUCCCUUACCCUGUUUUAUAAACCUGUGCUGGAAUUCUCGGGUGCCAA; result = 0.724
Strand = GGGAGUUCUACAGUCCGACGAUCUAACUGAAAUCAAUCAAGAUAACUUUAUUCAAAGAGCAGCCCGCUUUGUGUGACUAAAAUGAAACAAGACAGUUGAAUUGUGUGACUUGAAGAUUACCAAUGAUUUUGAGUGGAAUUCUCGGGUGCCAA; result = 0.399
Strand = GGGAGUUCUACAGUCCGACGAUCUUUGAAAUUUGUAUUUAAUUUCACAGUGACCUAGAGCUAAGGUGCUCCCGGUUGUGGCAAUAGGAGCCACAAGUAUUUUCUUUCUUUCUUUCGUUCUUUCUUUCUUUCUUUGGAAUUCUCGGGUGCCAA; result = 1.75
Strand = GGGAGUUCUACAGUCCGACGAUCAAGAACUGGAAUGCGUACGUCUUUUGUGCCACCUUGUACAAAGCCGGCUGCCCAGCCCCAGCCUCACCACCGCAUCCCACCUCCUGCCCUCCAUACCUCUAGUUGUGUCUUGGAAUUCUCGGGUGCCAA; result = 0.375
Strand = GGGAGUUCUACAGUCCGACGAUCUCUUCCUGCAGUUGAUGUAAUUGCUUUGUUUGCAAUAGCACAAGCUGCAUUAUUCCAGUCAGGACUGUGAUAACUUGCUGCCAGCCCCACUCAACUUUCAGUUGGCUCUGUGGAAUUCUCGGGUGCCAA; result = 0.367
Strand = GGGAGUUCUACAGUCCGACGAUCUAAAGAAGAGACUACAUUAUUUAUUUUUUAAAUUAAGCCUUCAAUAAUAAAGUGAGUAUACAAAUUUGAUCUGUCUGUACUAUUAUCAGAGGGUGUUGAGUCUCACAUUGUGGAAUUCUCGGGUGCCAA; result = 0.508
Strand = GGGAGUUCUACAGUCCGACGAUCUCUAAGUUGUCCAGGUGCUCAGCUCCUGUGUGCCUGGAUGAUGAGAGGGCUCUAGGGCUCUUUCAGUCAGAGACUUACAUUGAGGUGGGGUGAGGGUCAGAGAAAGUUCUUGGAAUUCUCGGGUGCCAA; result = 0.62

Study 4
Target: Interferon regulatory factor 5, full length, phosphomimetic (IRF5, Homo sapiens, UniProt Q13568-2, residues 1-514, S451D/S453D/S456D/S462D)
Technique: protein-binding microarray
Form: double-stranded DNA, one strand shown
Sample: in vitro
Concentration: 940 nM top
Notes: 60-bp whole probe
Together with: salmon DNA 0.4 mg/ml
Reference: random background probes
Direction: higher = stronger binding
Quantity: fitted relative affinity
Shared flanks, not repeated: GCCTAGCAC … GTCTTGATTCGCTTGACGCTGCTG
Strand = TTCGGACTGCTTATCCTTTAGTGCTAG; result = -0.134 z-score
Strand = GACGGACTCGGTTTCGGGACGTGCTAG; result = 3.22 z-score
Strand = TCATACTTCACTCTCTGACTGTGCTAG; result = 1.09 z-score
Strand = TTAGATATCGGGGTTCGATTAGTGCTA; result = 0.257 z-score
Strand = TTAGGTATCGACTAACGGTTAGTGCTA; result = 6.24 z-score
Strand = GGTATTCGGAACTTTTAGCTGTGCTAG; result = 0.151 z-score
Strand = TTAGGTTTCGGGCTGGGTTAGTGCTAG; result = 9 z-score
Strand = GACGGTTTCCTTCTCGTGACGTGCTAG; result = 1.91 z-score
Strand = GACGATGTCGGGTATCGAGACGTGCTA; result = 0.914 z-score
Strand = TCACCTTTGAAAGTTGTTACTGTGCTA; result = 0.611 z-score
Strand = GACGACTTCAGACTGGAGACGTGCTAG; result = -0.303 z-score
Strand = TGAGTAATTACATAATTACGGTGCTAG; result = -0.21 z-score
Strand = GACGATATCGCGTTTCGAGACGTGCTA; result = 0.127 z-score
Strand = TACGGTCTCCTTTTCCTGACGTGCTAG; result = 0.584 z-score
Strand = GACGGAGTGGGTATCGGGACGTGCTAG; result = 0.872 z-score
Strand = TTAGGTTTCCTTTGCCTTTAGTGCTAG; result = 2.05 z-score
Strand = GACGGTCTCCGACTGGGGACGTGCTAG; result = -0.737 z-score
Strand = CTAGGTCTCGGTTTCGGTTAGTGCTAG; result = 9.37 z-score
Strand = GACGATGCCAGTTTCGAGACGTGCTAG; result = 3.62 z-score

For quick reference, copied from above (study 1):
Strand = ATAGTATA; result = -0.0539
Strand = GAATAGTA; result = -0.122
Strand = GTACTCAC; result = -0.111
Strand = ACTGGTTC; result = -0.0317
Strand = CAAACGAG; result = -0.0664
Strand = CCCACTTC; result = -0.141
